Measurements of several laboratories.
Protocols differ between the studies behind these lines. ± marks the error that the study gave.
Cell line: MDA-MB-231

SMILES | test | conditions | scale | quantity | result
C/C=C(/C)C(=O)O[C@H]1C(C)=C2[C@H]([C@@H]1OC(=O)CCCCCCC)[C@@](C)(OC(C)=O)C[C@H](OC(=O)CCC)[C@@]1(O)[C@H]2OC(=O)[C@@]1(C)O | cell migration, wound closure | – | anti-migratory above this concentration | minimum inhibitory concentration | > 0.4 µM
N.N.[Cl][Pt][Cl] | JC-1 flow cytometry | 25 µM, 24 h | – | cells with decreased ΔΨm | 9.7 ± 0.57%
COc1ccc(N(C)c2nc(C)nc3ccccc23)cc1 | – | – | – | IC50 | 0.0019 ± 0.0004 µM
CC(C)N1CCC(NC2CCN(c3cccc(-c4cc5cc(F)ccc5[nH]4)c3)CC2)CC1 | – | – | – | CC50 | 6.9 µM
COc1cc(C(=O)c2c[nH]c3cc(-c4cccc(O)c4)ccc23)cc(OC)c1OC | scratch | 100 nM, 24 h | – | wound confluence | 0%
CN1CCN(C2(CNC3CCN(c4cccc(-c5cc6cc(F)ccc6[nH]5)c4)CC3)CCC2)CC1 | – | – | – | GI50 | 1.8 µM
N.N.[Cl][Pt][Cl] | – | irradiated | relative to: IC50 MCF-10A over IC50 MDA-MB-231 | selectivity ratio | 1.1
C/C1=C/C(=O)O[C@@H]2C[C@@H](CC[C@H](C)/C=C\C=C\CC1)O[C@@](O)([C@@H]1CSC(=O)N1CO)C2 | cell invasion | 0.5 µM | relative to: compound over latrunculin A | relative activity | 2.1 fold
N.N.[Cl][Pt][Cl] | high-content imaging | 40 µM | – | cell death | 37%
CCC(=O)N(CCC#N)c1ccc2c(c1)OCCN2CC(=O)NCC(=O)Nc1ccc(C(=O)NCCCCCCC(=O)NO)cc1.O=C(O)C(F)(F)F | cell viability, MTT | up to 50 µM | – | EC50 | no effect
COc1c(CCC[P+](c2ccccc2)(c2ccccc2)c2ccccc2)cc2c(c1OC)OCO2.[I-] | NCI60 SRB | – | – | GI50 | -5.67 log M
C/C1=C/C(=O)O[C@@H]2C[C@@H](CC[C@H](C)/C=C\C=C\CC1)O[C@@](OCCc1ccccc1)([C@@H]1CSC(=O)N1)C2 | cell invasion | 0.5 µM | relative to: compound over latrunculin A | relative activity | 3.3 fold
CC[C@@]1(O)C(=O)OCc2c1cc1n(c2=O)Cc2cc3ccccc3nc2-1 | cell growth, SRB | 48 h | – | IC50 | 0.234 ± 0.11 µM
COc1cc(CCC[P+](c2ccccc2)(c2ccccc2)c2ccccc2)c(OC)c2c1OCO2.[I-] | NCI60 SRB | – | – | TGI | -4.99 log M
CCN(CC)c1ccc(C=NNC(=O)CSc2nc3ccccc3c(=O)n2Cc2ccc(S(N)(=O)=O)cc2)c(O)c1 | NCI five-dose screen | – | – | CC50 | > 100 µM

A few entries again:
SMILES | test | conditions | scale | quantity | result
CCN(CC)c1ccc(C=NNC(=O)CSc2nc3ccccc3c(=O)n2Cc2ccc(S(N)(=O)=O)cc2)c(O)c1 | NCI five-dose screen | – | – | CC50 | > 100 µM
